{"data": "Experimental data from different studies", "note": "Parts stem from different laboratories: compare values within a part only.", "sequence of UniProt Q5S007 (whole entry, looked up)": "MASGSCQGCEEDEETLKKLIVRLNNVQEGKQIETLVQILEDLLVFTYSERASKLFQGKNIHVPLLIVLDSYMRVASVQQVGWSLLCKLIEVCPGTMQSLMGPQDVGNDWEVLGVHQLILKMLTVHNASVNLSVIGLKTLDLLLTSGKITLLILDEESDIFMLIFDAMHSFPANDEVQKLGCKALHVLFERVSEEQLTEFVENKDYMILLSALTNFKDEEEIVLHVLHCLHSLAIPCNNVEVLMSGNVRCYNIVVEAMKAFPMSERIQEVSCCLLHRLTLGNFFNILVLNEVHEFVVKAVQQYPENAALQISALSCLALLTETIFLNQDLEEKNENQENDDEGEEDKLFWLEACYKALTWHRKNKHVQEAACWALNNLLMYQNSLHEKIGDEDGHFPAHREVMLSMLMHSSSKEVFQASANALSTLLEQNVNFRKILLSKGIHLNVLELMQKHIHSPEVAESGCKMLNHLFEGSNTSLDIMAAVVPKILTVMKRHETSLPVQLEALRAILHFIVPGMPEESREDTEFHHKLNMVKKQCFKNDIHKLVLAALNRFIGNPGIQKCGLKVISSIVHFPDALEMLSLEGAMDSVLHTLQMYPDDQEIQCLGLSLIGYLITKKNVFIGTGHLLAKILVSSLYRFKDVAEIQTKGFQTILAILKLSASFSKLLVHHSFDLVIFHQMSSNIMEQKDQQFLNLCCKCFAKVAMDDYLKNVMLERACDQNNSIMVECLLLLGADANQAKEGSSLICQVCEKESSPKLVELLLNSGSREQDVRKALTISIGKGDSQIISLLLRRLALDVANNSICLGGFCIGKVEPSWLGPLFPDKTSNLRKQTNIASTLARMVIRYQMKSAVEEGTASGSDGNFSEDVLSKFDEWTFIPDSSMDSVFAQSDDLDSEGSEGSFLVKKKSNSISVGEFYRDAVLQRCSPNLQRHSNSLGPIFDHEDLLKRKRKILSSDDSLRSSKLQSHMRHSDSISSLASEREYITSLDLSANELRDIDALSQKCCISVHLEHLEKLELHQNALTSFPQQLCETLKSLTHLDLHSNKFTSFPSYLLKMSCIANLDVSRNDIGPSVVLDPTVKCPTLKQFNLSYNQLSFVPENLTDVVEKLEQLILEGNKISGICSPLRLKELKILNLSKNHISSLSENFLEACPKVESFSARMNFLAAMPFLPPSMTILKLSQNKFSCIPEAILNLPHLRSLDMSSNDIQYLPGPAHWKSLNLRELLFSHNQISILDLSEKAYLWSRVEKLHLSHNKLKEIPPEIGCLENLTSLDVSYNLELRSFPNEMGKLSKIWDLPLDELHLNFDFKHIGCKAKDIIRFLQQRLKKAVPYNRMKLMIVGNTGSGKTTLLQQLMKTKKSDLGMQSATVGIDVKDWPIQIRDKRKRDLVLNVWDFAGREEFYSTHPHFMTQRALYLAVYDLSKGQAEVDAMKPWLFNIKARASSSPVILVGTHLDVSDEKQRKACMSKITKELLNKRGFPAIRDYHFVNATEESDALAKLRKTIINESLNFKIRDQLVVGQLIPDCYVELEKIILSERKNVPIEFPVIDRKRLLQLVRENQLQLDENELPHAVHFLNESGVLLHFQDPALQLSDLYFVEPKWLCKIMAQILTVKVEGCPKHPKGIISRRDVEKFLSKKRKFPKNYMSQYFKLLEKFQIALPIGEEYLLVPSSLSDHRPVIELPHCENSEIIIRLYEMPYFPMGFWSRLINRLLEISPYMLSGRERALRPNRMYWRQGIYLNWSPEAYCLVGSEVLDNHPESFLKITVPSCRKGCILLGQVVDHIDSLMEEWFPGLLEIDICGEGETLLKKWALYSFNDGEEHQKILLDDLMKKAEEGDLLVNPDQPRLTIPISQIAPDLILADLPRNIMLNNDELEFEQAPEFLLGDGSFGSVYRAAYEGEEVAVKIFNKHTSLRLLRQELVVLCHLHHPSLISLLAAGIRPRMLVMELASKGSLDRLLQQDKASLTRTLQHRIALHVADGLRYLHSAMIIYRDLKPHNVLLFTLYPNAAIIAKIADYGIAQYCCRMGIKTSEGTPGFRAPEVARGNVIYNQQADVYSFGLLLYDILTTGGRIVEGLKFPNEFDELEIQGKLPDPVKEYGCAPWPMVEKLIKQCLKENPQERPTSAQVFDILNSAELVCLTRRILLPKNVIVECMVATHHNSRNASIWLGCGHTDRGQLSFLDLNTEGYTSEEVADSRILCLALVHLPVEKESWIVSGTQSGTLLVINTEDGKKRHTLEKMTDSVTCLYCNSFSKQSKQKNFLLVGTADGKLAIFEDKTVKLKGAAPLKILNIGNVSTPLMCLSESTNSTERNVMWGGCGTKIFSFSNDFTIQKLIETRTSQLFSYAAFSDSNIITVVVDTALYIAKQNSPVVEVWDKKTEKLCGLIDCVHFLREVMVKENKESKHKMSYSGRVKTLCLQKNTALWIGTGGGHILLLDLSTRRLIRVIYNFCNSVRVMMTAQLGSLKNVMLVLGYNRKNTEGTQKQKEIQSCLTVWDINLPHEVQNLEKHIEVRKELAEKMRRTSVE", "sequence of UniProt P07333 (whole entry, looked up)": "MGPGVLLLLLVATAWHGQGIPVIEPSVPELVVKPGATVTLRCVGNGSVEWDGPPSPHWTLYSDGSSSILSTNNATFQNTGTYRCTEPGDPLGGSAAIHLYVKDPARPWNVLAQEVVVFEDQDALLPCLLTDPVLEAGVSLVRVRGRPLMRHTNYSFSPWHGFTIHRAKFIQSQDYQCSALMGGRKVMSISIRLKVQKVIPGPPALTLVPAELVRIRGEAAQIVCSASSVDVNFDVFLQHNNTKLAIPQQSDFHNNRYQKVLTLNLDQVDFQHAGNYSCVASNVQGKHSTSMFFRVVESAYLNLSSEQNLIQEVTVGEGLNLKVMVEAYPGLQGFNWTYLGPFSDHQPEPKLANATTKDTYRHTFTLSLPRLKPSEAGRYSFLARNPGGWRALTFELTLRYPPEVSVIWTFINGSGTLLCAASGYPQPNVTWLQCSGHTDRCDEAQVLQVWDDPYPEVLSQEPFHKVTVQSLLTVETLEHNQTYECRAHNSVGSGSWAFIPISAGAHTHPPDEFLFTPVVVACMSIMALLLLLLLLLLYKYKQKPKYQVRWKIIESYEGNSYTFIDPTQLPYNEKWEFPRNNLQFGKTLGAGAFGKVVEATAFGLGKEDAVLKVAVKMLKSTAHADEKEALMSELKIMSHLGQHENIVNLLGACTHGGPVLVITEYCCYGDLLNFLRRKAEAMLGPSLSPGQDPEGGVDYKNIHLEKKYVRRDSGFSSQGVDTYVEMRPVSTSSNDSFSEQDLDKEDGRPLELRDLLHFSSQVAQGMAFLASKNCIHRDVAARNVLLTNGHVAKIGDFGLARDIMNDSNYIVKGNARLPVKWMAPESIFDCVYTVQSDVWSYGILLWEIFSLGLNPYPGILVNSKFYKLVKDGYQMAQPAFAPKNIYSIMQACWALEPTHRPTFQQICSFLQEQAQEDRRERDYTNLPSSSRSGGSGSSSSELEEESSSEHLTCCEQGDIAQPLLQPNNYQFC", "sequence of UniProt P22607 (whole entry, looked up)": "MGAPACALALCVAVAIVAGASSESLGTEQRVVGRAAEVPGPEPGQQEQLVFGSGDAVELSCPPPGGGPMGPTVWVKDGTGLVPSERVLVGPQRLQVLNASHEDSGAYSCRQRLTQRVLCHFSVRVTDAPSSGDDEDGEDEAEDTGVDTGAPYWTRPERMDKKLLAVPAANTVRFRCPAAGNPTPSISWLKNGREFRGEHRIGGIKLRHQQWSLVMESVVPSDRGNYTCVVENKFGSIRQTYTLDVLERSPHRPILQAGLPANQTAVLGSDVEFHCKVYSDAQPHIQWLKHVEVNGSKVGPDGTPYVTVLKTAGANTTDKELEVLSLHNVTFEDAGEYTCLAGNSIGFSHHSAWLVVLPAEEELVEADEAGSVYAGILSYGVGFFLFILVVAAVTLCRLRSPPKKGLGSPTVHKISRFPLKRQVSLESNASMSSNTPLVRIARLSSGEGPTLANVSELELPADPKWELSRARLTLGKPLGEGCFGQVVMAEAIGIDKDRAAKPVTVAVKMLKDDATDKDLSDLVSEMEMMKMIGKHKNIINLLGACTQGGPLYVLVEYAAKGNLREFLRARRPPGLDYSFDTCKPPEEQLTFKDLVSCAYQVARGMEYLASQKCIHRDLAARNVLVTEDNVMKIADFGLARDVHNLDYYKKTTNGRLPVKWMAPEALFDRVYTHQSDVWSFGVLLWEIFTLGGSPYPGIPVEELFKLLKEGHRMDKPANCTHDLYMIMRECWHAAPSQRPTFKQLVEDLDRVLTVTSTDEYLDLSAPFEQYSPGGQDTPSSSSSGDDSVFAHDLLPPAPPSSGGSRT"}
{"data": "Sample 1", "SMILES": "O=C(N1CCS(=O)(=O)CC1)N1C[C@H](c2ccc(OC(F)(F)F)cc2)C[C@H](c2nc(C3CC3)no2)C1", "observed": "cell-free assay", "method": "competition with immobilised ligand", "tested at": "1 µM"}
{"target": "Mitogen-activated protein kinase 12 (MAPK12, Homo sapiens, UniProt P53778)", "remaining binding": "100%"}
{"target": "Protein kinase C delta type (PRKCD, Homo sapiens, UniProt Q05655)", "remaining binding": "100%"}
{"target": "Serine/threonine-protein kinase 24 (STK24, Homo sapiens, UniProt Q9Y6E0)", "remaining binding": "97%"}
{"target": "Mitogen-activated protein kinase 3 (MAPK3, Homo sapiens, UniProt P27361)", "remaining binding": "94%"}
{"target": "Macrophage colony-stimulating factor 1 receptor, autoinhibited (CSF1R, Homo sapiens, UniProt P07333)", "remaining binding": "100%"}
{"target": "cGMP-dependent protein kinase 1 (PRKG1, Homo sapiens, UniProt Q13976)", "remaining binding": "100%"}
{"target": "Serine/threonine-protein kinase BRSK2 (BRSK2, Homo sapiens, UniProt Q8IWQ3)", "remaining binding": "100%"}
{"target": "SRSF protein kinase 3 (SRPK3, Homo sapiens, UniProt Q9UPE1)", "remaining binding": "100%"}
{"target": "Proto-oncogene tyrosine-protein kinase Src (SRC, Homo sapiens, UniProt P12931)", "remaining binding": "97%"}
{"target": "Leukocyte tyrosine kinase receptor (LTK, Homo sapiens, UniProt P29376)", "remaining binding": "100%"}
{"target": "Phosphatidylinositol 4,5-bisphosphate 3-kinase catalytic subunit gamma isoform (PIK3CG, Homo sapiens, UniProt P48736)", "remaining binding": "100%"}
{"target": "Serine/threonine-protein kinase PAK 1 (PAK1, Homo sapiens, UniProt Q13153)", "remaining binding": "100%"}
{"target": "Aurora kinase B (AURKB, Homo sapiens, UniProt Q96GD4)", "remaining binding": "100%"}
{"target": "Rho-associated protein kinase 2 (ROCK2, Homo sapiens, UniProt O75116)", "remaining binding": "98%"}
{"target": "Tyrosine-protein kinase ABL1, phosphorylated (ABL1, Homo sapiens, UniProt P00519, Y253F)", "remaining binding": "100%"}
{"target": "Mitogen-activated protein kinase kinase kinase kinase 4 (MAP4K4, Homo sapiens, UniProt O95819)", "remaining binding": "100%"}
{"target": "Serine/threonine-protein kinase 38 (STK38, Homo sapiens, UniProt Q15208)", "remaining binding": "100%"}
{"target": "Mitogen-activated protein kinase kinase kinase 19 (MAP3K19, Homo sapiens, UniProt Q56UN5)", "remaining binding": "58%"}
{"target": "Leucine-rich repeat serine/threonine-protein kinase 2 (LRRK2, Homo sapiens, UniProt Q5S007)", "remaining binding": "100%"}
{"target": "Ribosomal protein S6 kinase alpha-5, N-terminal kinase domain (RPS6KA5, Homo sapiens, UniProt O75582)", "remaining binding": "100%"}
{"target": "Fibroblast growth factor receptor 3 (FGFR3, Homo sapiens, UniProt P22607)", "remaining binding": "100%"}
{"target": "Eukaryotic translation initiation factor 2-alpha kinase 1 (EIF2AK1, Homo sapiens, UniProt Q9BQI3)", "remaining binding": "90%"}
{"target": "Death-associated protein kinase 2 (DAPK2, Homo sapiens, UniProt Q9UIK4)", "remaining binding": "100%"}
{"target": "Phosphatidylinositol 4,5-bisphosphate 3-kinase catalytic subunit delta isoform (PIK3CD, Homo sapiens, UniProt O00329)", "remaining binding": "97%"}
{"data": "Sample 2", "cell line": "Huh-7", "tested at": "10 µM", "time": "24 h"}
{"SMILES": "Cc1cn([C@H]2C[C@H](N=[N+]=[N-])[C@@H](CO)O2)c(=O)[nH]c1=O", "viability": "92%"}
{"SMILES": "COc1ccc(Cl)cc1C(=O)NCCc1ccc(S(=O)(=O)NC(=O)NC2CCCCC2)cc1", "viability": "97.4%"}
{"SMILES": "CCCc1nc2c(C)cc(-c3nc4ccccc4n3C)cc2n1Cc1ccc(-c2ccccc2C(=O)O)cc1", "viability": "96.4%"}
{"SMILES": "CN[C@@H]1[C@@H](O)[C@@H](O[C@@H]2[C@@H](O)[C@H](O[C@H]3OC(CN)=CC[C@H]3N)[C@@H](N)C[C@H]2N)OC[C@]1(C)O", "viability": "99.3%"}
{"SMILES": "Nc1ccc(O)c(C(=O)O)c1", "viability": "99.3%"}
{"SMILES": "C[C@@H]1C[C@H]2[C@@H]3CCC4=CC(=O)C=C[C@]4(C)[C@@]3(F)[C@@H](O)C[C@]2(C)[C@@]1(O)C(=O)CO", "viability": "101%"}
{"SMILES": "C[n+]1cc2c3c(ccc2c2ccc4cc5c(cc4c21)OCO5)OCO3", "viability": "12.6%"}
{"SMILES": "CCN(CC)Cc1cc(Nc2ccnc3cc(Cl)ccc23)ccc1O", "viability": "95.3%"}
{"SMILES": "O=C1CN(/N=C/c2ccc([N+](=O)[O-])o2)C(=O)N1", "viability": "101%"}
{"SMILES": "c1ccc(CN(CC2=NCCN2)c2ccccc2)cc1", "viability": "91.7%"}
{"SMILES": "CC1(C)O[C@@H]2C[C@H]3[C@@H]4CCC5=CC(=O)CC[C@]5(C)[C@@]4(F)[C@@H](O)C[C@]3(C)[C@]2(C(=O)CCl)O1", "viability": "99.7%"}
{"SMILES": "COc1cccc(OC)c1C(=O)N[C@@H]1C(=O)N2[C@@H]1SC(C)(C)[C@@H]2C(=O)O", "viability": "103%"}
{"SMILES": "Cc1cccc(Nc2ccccc2C(=O)O)c1C", "viability": "101%"}
{"SMILES": "CO[C@H]1C[C@H](O[C@H]2[C@H](C)[C@@H](O[C@@H]3O[C@H](C)C[C@H](N(C)C)[C@H]3O)[C@@H](C)C[C@@]3(CO3)C(=O)[C@H](C)[C@@H](O)[C@@H](C)[C@@H](C)OC(=O)[C@@H]2C)O[C@@H](C)[C@@H]1O", "viability": "101%"}
{"SMILES": "OC[C@@H](O)[C@@H](O)[C@H](O)[C@H](O)CO", "viability": "98.5%"}
{"data": "Sample 3", "host": "human", "matrix": "microsomes or S9", "tested at": "2 µM", "time": "0.5 h"}
{"SMILES": "CCOC(=O)C1=C(O)CN(Cc2ccc(F)cc2)C1=O", "remaining compound": "89.2%"}
{"SMILES": "N#Cc1ccc(-c2ccccc2CCOc2ncccn2)cc1", "remaining compound": "27.7%"}
{"SMILES": "O=c1ccc(-c2ccc(S(=O)(=O)Nc3cc(F)ccc3F)o2)n[nH]1", "remaining compound": "33.3%"}
{"SMILES": "Cc1nc2[nH]c(CCCCOCc3ccccc3)nc2cc1Br", "remaining compound": "5.81%"}
{"SMILES": "CC1(C)CC(n2[nH]c(=O)c3c2N=C(O)CSC3C2CCCCC2)CCO1 (centres unmarked)", "remaining compound": "56.5%"}
{"SMILES": "COc1c(Cl)c(Nc2ccc3[nH]ncc3c2)nc(NC(C)C)c1Cl", "remaining compound": "55.8%"}
{"SMILES": "CC(C)(C)/C(=C/c1ccc(Cl)cc1)Cn1ccnc1", "remaining compound": "99.2%"}
{"SMILES": "O=C1CCC(C(=O)N2CCOC(c3ccsc3)C2)n2cccc21 (centres unmarked)", "remaining compound": "91.3%"}
{"SMILES": "CCN(CC)C(=O)c1cn(C2CCC23CCN(S(=O)(=O)CC)CC3)nn1 (centres unmarked)", "remaining compound": "88.3%"}
{"SMILES": "O=C(O)C1CC=CCC1C(=O)/N=c1\\[nH]ccs1 (centres unmarked)", "remaining compound": "84%"}
{"SMILES": "CC1CCN2c3cc(Cl)ccc3CC3(C(=O)OC(C)(C)OC3=O)C2C1 (centres unmarked)", "remaining compound": "> 100%"}
{"SMILES": "CC(CO)Oc1cc(-n2nc3c(c2Cl)CCCC3)c(F)cc1Cl (centres unmarked)", "remaining compound": "25.6%"}
{"data": "Sample 4", "target": "Cytoplasmic tyrosine-protein kinase BMX (BMX, Homo sapiens, UniProt P51813)", "observed": "enzyme activity", "mode": "inhibitor", "tested at": "0.5 µM", "reference": "control", "sequence of UniProt P51813 (whole entry, looked up)": "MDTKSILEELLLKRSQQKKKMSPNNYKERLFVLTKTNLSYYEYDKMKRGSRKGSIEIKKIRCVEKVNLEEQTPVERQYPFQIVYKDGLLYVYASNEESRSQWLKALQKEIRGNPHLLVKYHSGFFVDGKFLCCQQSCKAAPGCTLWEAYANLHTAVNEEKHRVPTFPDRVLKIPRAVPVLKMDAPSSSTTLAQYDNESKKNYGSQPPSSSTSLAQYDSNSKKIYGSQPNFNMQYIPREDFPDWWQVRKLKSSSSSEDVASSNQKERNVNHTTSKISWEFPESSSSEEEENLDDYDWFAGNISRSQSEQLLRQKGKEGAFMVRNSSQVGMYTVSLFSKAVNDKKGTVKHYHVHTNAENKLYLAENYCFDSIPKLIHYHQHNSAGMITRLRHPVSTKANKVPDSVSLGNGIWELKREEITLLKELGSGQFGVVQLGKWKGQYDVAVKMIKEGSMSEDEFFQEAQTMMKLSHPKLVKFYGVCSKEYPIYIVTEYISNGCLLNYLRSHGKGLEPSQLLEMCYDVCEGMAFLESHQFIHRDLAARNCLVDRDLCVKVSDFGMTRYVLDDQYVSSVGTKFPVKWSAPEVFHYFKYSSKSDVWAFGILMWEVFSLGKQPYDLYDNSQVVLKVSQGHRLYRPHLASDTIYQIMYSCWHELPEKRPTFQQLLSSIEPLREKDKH"}
{"Compound": "C[C@@H]1CCN(C(=O)CC#N)C[C@@H]1N(C)c1ncnc2[nH]ccc12", "remaining activity [%]": 111}
{"Compound": "O=C(NC(NC(=S)Nc1ccc(F)c([N+](=O)[O-])c1)C(Cl)(Cl)Cl)C(c1ccccc1)c1ccccc1 (centres unmarked)", "remaining activity [%]": 102}
{"Compound": "CCN(CC)C(=O)c1ccc(Nc2nc(OCC3CCCCC3)c3[nH]cnc3n2)cc1", "remaining activity [%]": 42.9}
{"Compound": "Ic1cccc(CSc2nnc(-c3ccncc3)o2)c1", "remaining activity [%]": 86.6}
{"Compound": "Cc1cc2ncc(-c3ccccc3)nc2cc1C", "remaining activity [%]": 90}
{"Compound": "CCOc1nc(NC(=O)Cc2cc(OC)ccc2OC)cc(N)c1C#N", "remaining activity [%]": 98.4}
{"Compound": "COc1cc2ncnc(Nc3ccc(O)c(Br)c3)c2cc1OC", "remaining activity [%]": 95.3}
{"Compound": "CN(C)C[C@H]1CCn2c(c(C3=C(c4cn(C)c5ccccc45)C(=O)NC3=O)c3ccccc32)C1", "remaining activity [%]": 91.7}
{"Compound": "Cn1nc2c3c(cccc31)C(=O)c1ccccc1-2", "remaining activity [%]": 101}
{"Compound": "c1ccc(-c2[nH]ncc2-c2ccnc3ccccc23)nc1", "remaining activity [%]": 89.2}
{"Compound": "COc1cc2ncnc(Nc3cccc(Cl)c3)c2cc1OC", "remaining activity [%]": 88.6}
{"Compound": "CCN(CC)CCNC(=O)c1c(C)[nH]c(/C=C2\\C(=O)Nc3ccc(F)cc32)c1C", "remaining activity [%]": 99}
{"Compound": "COc1cc2c(cc1OC)-c1[nH]nc(Nc3cccc(F)c3)c1C2", "remaining activity [%]": 74.8}
{"Compound": "O=C1C(Cl)=C(N2C(=O)CCC2=O)C(=O)c2ccccc21", "remaining activity [%]": 103}
{"Compound": "Cc1nc2cc3nc(-c4cccs4)cnc3cc2n1C", "remaining activity [%]": 117}
{"Compound": "O=C(Nc1cccc(Nc2nccc(Nc3cccc(C(F)(F)F)c3)n2)c1)C1CC1", "remaining activity [%]": 83.6}
{"Compound": "N#Cc1c(NC(=O)c2cccc3ccccc23)sc2c1CCCC2", "remaining activity [%]": 101}
{"Compound": "N#C/C(=C\\c1ccc(O)c(O)c1)C(=O)NCc1ccccc1", "remaining activity [%]": 88.8}
{"Compound": "Nc1cccc(-c2cc3c(Oc4cccc(O)c4)ncnc3[nH]2)c1", "remaining activity [%]": 24.3}
{"Compound": "c1ccc(-c2cnc(Nc3ccc(OCCN4CCCC4)cc3)s2)cc1", "remaining activity [%]": 84.5}
